Measured values of several laboratories.
± gives the spread as reported.

C=C(C[C@H](N)C(=O)O)C(N)=O — result for “concentration increasing cytotoxicity”: 320 µM (MCF7; 72 h; reference: vehicle).
With CC[C@@]12SS[C@]3(C(=O)N1C)[C@@H](O)[C@]1(C45c6ccccc6N[C@@H]4N4C(=O)[C@@]6(CC)SS[C@@]4(C(=O)N6C)[C@H]5O)c4ccccc4N[C@@H]1N3C2=O (some centres unmarked) the IC50 was 300 nM (NCI-H460; cell growth or viability, SRB).
Under “minimum cytotoxic concentration”, Nc1ccn([C@@H]2O[C@H](CO)[C@@H](O)C2(F)F)c(=O)n1 is recorded as 0.008 µM (Vero; cell morphology, microscopy; 5 (unit not given)).
O=C1Nc2ccccc2/C1=N/N=C/c1cccc([N+](=O)[O-])c1 has a cytotoxic concentration of over 200 µg/mL (HUVEC; MTT; 24 and 48 h, 50% cell death).
The drug efflux of COc1cccc2c1C(=O)c1c(O)c3c(c(O)c1C2=O)C[C@@](O)(C(=O)CO)C[C@@H]3O[C@H]1C[C@H](N)[C@H](O)[C@H](C)O1 is reported as 84.9% (MCF7/ADR; flow cytometry; 10 µg/mL equivalent, 4 h loading, 4 h efflux, 37 °C).
Under “minimal cytotoxic concentration”, Nc1nc2c(ncn2COCCOP(=O)(NC(Cc2ccccc2)C(=O)OCc2ccccc2)Oc2ccccc2)c(=O)[nH]1 (centres unmarked) is recorded as over 50 µM (HEL; altered cell morphology).
For COc1cc(/C=C/C(=O)OCC(O)C(OC)c2ccc(O)c(OC)c2)ccc1O (centres unmarked), the IC50 was over 20000 nM (Hepa-1c1c7; cytotoxicity, crystal violet; 48 h).
With CN1C(=O)[C@]23SS[C@@]1(C)C(=O)N2[C@H]1Nc2ccccc2[C@@]1([C@@]12c4ccccc4N[C@@H]1N1C(=O)[C@@]4(C)SS[C@]1(C(=O)N4C)[C@H]2O)[C@@H]3O the IC50 was 70 nM (MDA-MB-435; cell growth or viability, SRB).
CCOCN(C(=O)CCl)c1c(C)cccc1CC: “cell viability increase” about 48% (HEK293; neutral red uptake; 0.22 µg/mL, 24 h, compound pretreated 2 h at 23 °C with UV 365 nm; reference: 23 °C without UV).
With Clc1ccc(-c2cc(Cl)c(Cl)c(Cl)c2)cc1Cl the potency ratio was about 16 fold (primary hepatocytes; measured: Cyp1a1 mRNA; reference: mouse over human).
With CC(O)[C@@]12SS[C@]3(C(=O)N1C)[C@@H](O)[C@]1([C@@]45c6ccccc6N[C@@H]4N4C(=O)[C@]6(C)SS[C@]4(C(=O)N6C)[C@H]5O)c4ccccc4N[C@@H]1N3C2=O (some centres unmarked) the IC50 was 370 nM (SF-268; cell growth or viability, SRB).
Under “lowest effective concentration”, CN(C)N=O is recorded as 7500 µM (HepaRG 2D; DNA damage; 24 h).
CC(C)[C@H](NP(=O)(OCCOCn1cnc2c(=O)[nH]c(N)nc21)Oc1ccccc1)C(=O)OCc1ccccc1 (some centres unmarked): “minimal cytotoxic concentration” over 100 µM (HEL; altered cell morphology).
For CCCCN(CCCC)N=O, the relative survival was 58% (HepaRG, 3D spheroids; flow cytometry micronucleus; highest tested concentration, 24 h, plus 6 days hEGF; reference: vehicle).
The LD50 of CCNc1nc(Cl)nc(NCC)n1 is reported as 1.44 µg/mL (HEK293; neutral red uptake; 24 h).
Nc1ccc2c(n1)[nH]c1ccccc12 has a threshold concentration of 1 µM (rat primary midbrain neurons; selective dopaminergic neurotoxicity, measured: TH+ over MAP2+ neurons; 24 h).
The internalized peptide of `H-HGLASTLTRWAHYNALIRAFGGG-NH2 (C-amide)` is reported as 80 to 90% (SH-SY5Y; fluorimetry; 5 µM, 2 h, serum-free).
Under hemolysis, CC(C)C[C@@H](NC(=O)[C@H](C)NC(=O)CNC(=O)[C@@H](NC=O)C(C)C)C(=O)N[C@@H](C)C(=O)N[C@@H](C(=O)N[C@H](C(=O)N[C@@H](C(=O)N[C@@H](Cc1c[nH]c2ccccc12)C(=O)N[C@H](CC(C)C)C(=O)N[C@@H](Cc1c[nH]c2ccccc12)C(=O)N[C@H](CC(C)C)C(=O)N[C@@H](Cc1c[nH]c2ccccc12)C(=O)N[C@H](CC(C)C)C(=O)N[C@@H](Cc1c[nH]c2ccccc12)C(=O)NCCO)C(C)C)C(C)C)C(C)C is recorded as “no inhibition” (rat erythrocytes; concentration not given, 30 min, pH 7.4, 37 °C, added: Escherichia coli K-235 LPS, 1:5 w/w).
For CC(C)C[C@H](NCc1ccc(-c2ccccc2)cc1)C(=O)N[C@@H](Cc1c[nH]c2ccccc12)C(=O)NC(C)(C)C, “minimum cytotoxic concentration” read 20 µM (Vero; cell morphology, microscopy; 5 (unit not given)).
Under “γH2AX fold increase”, CC(C)N(N=O)C(C)C is recorded as 1.2 to 1.3 fold (HepaRG, 3D spheroids; concentration not given, 24 h, highest tested concentration, hEGF 5 days; reference: vehicle).
For CC[C@H](C)[C@H](NC(=O)[C@H](CC(=O)O)NC(=O)[C@H](Cc1ccccc1)NC(=O)[C@H](CC(C)C)NC(=O)CN)C(=O)N[C@H](C(=O)N[C@@H](CCCCN)C(=O)N[C@@H](CCCCN)C(=O)N[C@H](C(=O)N[C@H](C(=O)NCC(=O)N[C@@H](C)C(=O)N[C@@H](CC(C)C)C(=O)NCC(N)=O)C(C)C)C(C)C)C(C)C, “minimal hemolytic concentration” read 16 µM (human erythrocytes; 1 h, 37 °C, hemolysis ≤5%).
O=C(NO)c1ccc(O)c(O)c1 gave a TD50 of 276 ± 7.8 µM (ARPE-19, uninfected; cytotoxicity, CellTiter-Glo; 14 d).
CC(C)C[C@H](NC(=O)[C@H](C)NC(=O)[C@H](CCCCN)NC(=O)[C@H](CCCNC(=N)N)NC(=O)[C@H](Cc1ccc(O)cc1)NC(=O)[C@H](CC(C)C)NC(=O)[C@H](CCCNC(=N)N)NC(=O)[C@H](C)NC(=O)[C@H](C)NC(=O)[C@H](CC(C)C)NC(=O)[C@H](CCCCN)NC(=O)[C@H](C)NC(=O)[C@H](Cc1ccccc1)NC(=O)[C@H](C)NC(=O)[C@@H](N)CCCCN)C(=O)N[C@@H](C)C(=O)N[C@@H](CCCNC(=N)N)C(=O)N[C@@H](CCC(N)=O)C(=O)N[C@@H](CC(C)C)C(=O)NCC(=O)N[C@H](C(=O)N[C@@H](C)C(=O)N[C@@H](C)C(N)=O)C(C)C: “maximum non-lethal concentration” 230 µM (human pleural mesothelial cells (CRL-9444); LIVE/DEAD calcein-AM/EthD-1; 24 h, 37 °C; reference: untreated).
For CN1c2ccc(-c3ccc(C#N)cc3)cc2[C@H]2[C@H](CCN2C(=O)c2cccc(F)c2)[C@@H]1CO, the CC50 was 22000 nM (HEp-2, uninfected).
C=C(C[C@H](N)C(=O)O)C(=O)NCc1ccccc1 — result for “concentration increasing cytotoxicity”: 10 µM (MCF7; 24 h; reference: vehicle).
Under “minimum cytotoxic concentration”, C#CC[C@H](NCCC)C(=O)N[C@@H](Cc1c[nH]c2ccccc12)C(=O)NCc1ccc(-c2ccccc2)cc1 is recorded as over 100 µM (Vero; cell morphology, microscopy; 5 (unit not given)).
Under “γH2A.X fold increase”, CCN(CC)N=O is recorded as 2 to 2.3 fold (HepaRG, 3D spheroids; highest tested concentration, 24 h, plus 5 days, added: hEGF 100 ng/mL; reference: vehicle).
With CON=C(N)c1ccc(-c2ccc(-c3ccc(C(N)=NOC)cc3)o2)cc1 the IC50 was 54900 ± 1000 nM (KLE; cytotoxicity; 72 h, without α-naphthoflavone).
CC(C)OC(=O)[C@H](C)NP(=O)(OCCOCn1cnc2c(=O)[nH]c(N)nc21)Oc1ccccc1 (some centres unmarked) — result for “minimal cytotoxic concentration”: over 50 µM (HEL; altered cell morphology).
For CC[C@H](C)[C@H](NC(=O)[C@H](CC(=O)O)NC(=O)[C@H](Cc1ccccc1)NC(=O)[C@H](CC(C)C)NC(=O)CN)C(=O)N[C@H](C(=O)N[C@@H](CCCCN)C(=O)N[C@@H](CCCCN)C(=O)N[C@H](C(=O)N[C@H](C(=O)NCC(=O)N[C@@H](CC(C)C)C(=O)N[C@@H](CC(C)C)C(=O)N[C@@H](CCCCN)C(N)=O)C(C)C)C(C)C)C(C)C, “minimal hemolytic concentration” read 32 µM (human erythrocytes; 1 h, 37 °C, hemolysis ≤5%).
The relative survival of CN(CCCC(=O)O)N=O is reported as 76.7% (HepaRG, 3D spheroids; flow cytometry micronucleus; highest tested concentration, 24 h, plus 6 days hEGF; reference: vehicle).
CCCC[C@H](NC(=O)[C@H](CCN)NC(=O)[C@H](CCN)NC(=O)[C@H](CCCC)NC(=O)[C@H](Cc1c[nH]c2ccccc12)NC(=O)[C@H](CCN)NC(=O)[C@@H](N)CCCC)C(N)=O has a hemolysis of under 10% (human erythrocytes; up to 100 µM, 4 h, 37 °C; reference: Triton X-100).
CC[C@@]12SS[C@]3(C(=O)N1C)[C@@H](O)C1(C45c6ccccc6N[C@@H]4N4C(=O)[C@]6([C@@H](C)O)SS[C@]4(C(=O)N6C)[C@H]5O)c4ccccc4N[C@@H]1N3C2=O (some centres unmarked) has an IC50 of 520 nM (NCI-H460; cell growth or viability, SRB).
Under “minimal cytotoxic concentration”, CC(C)OC(=O)[C@H](C)NP(=O)(OCCOCn1cnc2c(=O)[nH]c(N)nc21)Oc1cccc2ccccc12 (some centres unmarked) is recorded as over 50 µM (HEL; altered cell morphology).
`pneumocandin I` gave a hemolysis of over 50% (human erythrocytes; 102.4 µg/mL, 1 h, 37 °C; reference: Tween 20).
